Measurements from different studies.
Every numbered part comes from another study and shows a few of its results, in no order.

Block 1 — method: protein binding microarray; molecule type: double-stranded DNA, one strand shown; sample: in vitro; concentration: not given; reference: not given; reading: higher = stronger binding; endpoint: E-score
Target: Histone acetyltransferase KAT6A, winged helix 2, GST fusion (KAT6A, Homo sapiens, UniProt Q92794, residues 85-181)
Notes: 8-mer, flanks averaged, mean of 2 arrays, mostly near background
Residues (chain): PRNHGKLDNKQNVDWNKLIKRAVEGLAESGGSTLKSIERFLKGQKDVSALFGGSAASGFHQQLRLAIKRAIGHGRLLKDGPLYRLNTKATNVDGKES
TCTCGAGA: -0.0591
AAACAGGG: 0.0349
AATAGTCG: -0.0305
ACGGATAC: -0.0676
GAGGTACA: -0.0789
CGGAGTGA: 0.165

Block 2 — method: RNA Bind-n-Seq; molecule type: RNA; sample: in vitro; concentration: 365 nM; reference: no-protein control; reading: higher = stronger binding; endpoint: RBNS enrichment (R)
Target: RNA binding protein fox-1 homolog 2, RRM domain, GST-SBP tag (RBFOX2, Homo sapiens, UniProt O43251-10, residues 100-194)
Notes: natural RNA segment, single round, ends assumed
Residues (chain): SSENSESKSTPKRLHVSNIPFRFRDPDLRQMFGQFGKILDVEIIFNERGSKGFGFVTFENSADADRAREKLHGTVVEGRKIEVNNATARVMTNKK
GGGAGUUCUACAGUCCGACGAUCUUGAGAAAUGGAAAUGCCACCUCAACUUAAAUAAUCACAGUUGGUCAUUUAUGCCCACUUUAAAAUGUAGGGAGUCUGUUUCGGCCCCUUUUCUGGAGUAUAUUUGUACCUGGAAUUCUCGGGUGCCAA: 0.339
GGGAGUUCUACAGUCCGACGAUCUAUUGAUCACAUUUUGAUUUUUUUCUCUCCACAUCAGGAUAGUUUACUGAAGCACAAUCUCUUAUACUAGUGGGACAAAAGGGAGAAAAAGGAAGCAAGAUAAAUGGGUAUGGAAUUCUCGGGUGCCAA: 0.404
GGGAGUUCUACAGUCCGACGAUCGCCUGGGGGAUGCACACUUGUAGCCUCAGAGCUAAGAGGACUCGGUGGAUGGAGCAAGACUGUGAACACGUGUGACCCGGACCCACCUACAGCCCGGUGGACCUUCAGCCUGGAAUUCUCGGGUGCCAA: 0.683
GGGAGUUCUACAGUCCGACGAUCUACUUCCUGGAGGCAAAAUCCUUGGAUUUACUAACAUGAUGAUUUACCUUUUCUUCACCGUUGUCGUUACAUUGUUAGAAAAGCAACAGGAAAAAAUCCAAUUCAUUUGAUGGAAUUCUCGGGUGCCAA: 0.306

Block 3 — method: universal PBM; molecule type: double-stranded DNA, one strand shown; sample: in vitro; concentration: not given; reading: higher = stronger binding; endpoint: E-score
Target: Sal-like protein 4, full length isoform B (SALL4, Homo sapiens, UniProt Q9UJQ4-2, residues 1-616)
Notes: 8-mer, flanks averaged, mean of replicates
Target sequence (chain): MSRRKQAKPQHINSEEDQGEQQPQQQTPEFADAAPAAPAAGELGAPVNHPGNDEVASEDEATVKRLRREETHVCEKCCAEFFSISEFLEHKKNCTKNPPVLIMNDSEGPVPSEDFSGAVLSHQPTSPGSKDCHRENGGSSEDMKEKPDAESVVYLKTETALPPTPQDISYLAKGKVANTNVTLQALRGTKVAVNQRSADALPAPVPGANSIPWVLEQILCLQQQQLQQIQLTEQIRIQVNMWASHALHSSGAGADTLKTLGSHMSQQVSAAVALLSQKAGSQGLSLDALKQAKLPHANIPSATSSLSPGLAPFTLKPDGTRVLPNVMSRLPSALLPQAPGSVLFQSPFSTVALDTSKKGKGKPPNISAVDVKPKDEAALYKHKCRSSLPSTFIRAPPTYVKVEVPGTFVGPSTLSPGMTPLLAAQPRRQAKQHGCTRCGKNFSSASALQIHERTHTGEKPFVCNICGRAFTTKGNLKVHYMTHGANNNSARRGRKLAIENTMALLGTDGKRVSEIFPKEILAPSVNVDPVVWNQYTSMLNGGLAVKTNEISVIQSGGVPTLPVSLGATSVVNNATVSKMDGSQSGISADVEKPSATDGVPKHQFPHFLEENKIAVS
CTGCCAAG: -0.0452
TCCCTTCA: 0.0057
ATATAAAG: 0.302
AGATGTAC: 0.106
CGACTCCG: -0.375
ATCACGCA: -0.0155

Other studies, line by line
PhoQ, residues 284 288 289 292 302 303 NLAAMI — fold induction (PhoP, residues 12 14 15 18 19 NQCAL (Escherichia coli, UniProt P23836); Sort-seq, refers to: YFP reporter; E. coli; PhoQ-PhoP variant library, with: 10 µM Mg2+; reference: high Mg2+ state, higher = stronger signaling): 13.3
